Measurements of several laboratories.
Every numbered part comes from another study and shows a few of its results, in no order.
UniProt P17948, sequence (whole entry, looked up): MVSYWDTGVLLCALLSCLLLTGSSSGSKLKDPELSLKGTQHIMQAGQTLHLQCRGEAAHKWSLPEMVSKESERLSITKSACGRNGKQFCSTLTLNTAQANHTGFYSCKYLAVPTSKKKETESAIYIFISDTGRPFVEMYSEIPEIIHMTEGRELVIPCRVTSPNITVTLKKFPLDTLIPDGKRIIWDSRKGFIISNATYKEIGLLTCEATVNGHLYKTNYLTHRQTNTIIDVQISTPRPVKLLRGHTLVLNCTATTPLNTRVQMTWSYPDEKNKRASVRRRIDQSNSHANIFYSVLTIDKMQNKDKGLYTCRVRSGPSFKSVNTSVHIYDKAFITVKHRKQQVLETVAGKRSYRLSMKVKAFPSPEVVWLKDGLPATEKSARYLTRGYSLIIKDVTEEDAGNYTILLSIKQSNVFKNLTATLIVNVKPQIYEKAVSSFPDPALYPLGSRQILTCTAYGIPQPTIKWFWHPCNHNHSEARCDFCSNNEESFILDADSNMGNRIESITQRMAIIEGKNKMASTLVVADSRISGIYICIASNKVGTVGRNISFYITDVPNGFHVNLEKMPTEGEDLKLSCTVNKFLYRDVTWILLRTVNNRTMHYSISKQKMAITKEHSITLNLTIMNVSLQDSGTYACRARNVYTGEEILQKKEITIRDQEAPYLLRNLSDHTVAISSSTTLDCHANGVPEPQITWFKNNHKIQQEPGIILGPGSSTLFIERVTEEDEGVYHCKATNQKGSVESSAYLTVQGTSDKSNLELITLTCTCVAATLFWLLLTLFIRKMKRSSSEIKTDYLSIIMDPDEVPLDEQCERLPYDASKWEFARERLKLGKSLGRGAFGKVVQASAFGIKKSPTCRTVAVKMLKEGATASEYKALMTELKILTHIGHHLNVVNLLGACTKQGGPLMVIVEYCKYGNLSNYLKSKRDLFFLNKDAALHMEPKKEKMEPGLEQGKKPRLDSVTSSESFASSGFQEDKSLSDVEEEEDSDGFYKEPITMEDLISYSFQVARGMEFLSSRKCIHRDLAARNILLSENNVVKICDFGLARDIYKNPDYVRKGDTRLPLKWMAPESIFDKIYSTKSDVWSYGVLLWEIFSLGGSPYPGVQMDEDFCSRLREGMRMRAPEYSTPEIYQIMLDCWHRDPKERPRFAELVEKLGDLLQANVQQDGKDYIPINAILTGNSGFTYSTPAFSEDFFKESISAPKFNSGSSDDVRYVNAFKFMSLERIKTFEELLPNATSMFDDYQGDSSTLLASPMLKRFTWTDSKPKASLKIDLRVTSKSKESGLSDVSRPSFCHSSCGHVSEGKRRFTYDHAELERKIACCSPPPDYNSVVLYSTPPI
UniProt P78356, sequence (whole entry, looked up): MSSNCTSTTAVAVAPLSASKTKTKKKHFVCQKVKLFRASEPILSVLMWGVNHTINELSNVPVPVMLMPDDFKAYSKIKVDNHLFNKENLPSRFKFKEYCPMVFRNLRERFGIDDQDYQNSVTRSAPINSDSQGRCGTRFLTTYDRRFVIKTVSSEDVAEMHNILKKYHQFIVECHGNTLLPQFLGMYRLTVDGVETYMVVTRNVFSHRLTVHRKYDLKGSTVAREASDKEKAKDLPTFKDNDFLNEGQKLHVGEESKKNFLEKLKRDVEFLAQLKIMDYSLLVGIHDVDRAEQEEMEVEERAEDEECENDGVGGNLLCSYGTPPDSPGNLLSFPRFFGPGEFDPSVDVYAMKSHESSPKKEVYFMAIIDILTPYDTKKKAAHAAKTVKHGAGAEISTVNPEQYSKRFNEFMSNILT
UniProt Q8N568, sequence (whole entry, looked up): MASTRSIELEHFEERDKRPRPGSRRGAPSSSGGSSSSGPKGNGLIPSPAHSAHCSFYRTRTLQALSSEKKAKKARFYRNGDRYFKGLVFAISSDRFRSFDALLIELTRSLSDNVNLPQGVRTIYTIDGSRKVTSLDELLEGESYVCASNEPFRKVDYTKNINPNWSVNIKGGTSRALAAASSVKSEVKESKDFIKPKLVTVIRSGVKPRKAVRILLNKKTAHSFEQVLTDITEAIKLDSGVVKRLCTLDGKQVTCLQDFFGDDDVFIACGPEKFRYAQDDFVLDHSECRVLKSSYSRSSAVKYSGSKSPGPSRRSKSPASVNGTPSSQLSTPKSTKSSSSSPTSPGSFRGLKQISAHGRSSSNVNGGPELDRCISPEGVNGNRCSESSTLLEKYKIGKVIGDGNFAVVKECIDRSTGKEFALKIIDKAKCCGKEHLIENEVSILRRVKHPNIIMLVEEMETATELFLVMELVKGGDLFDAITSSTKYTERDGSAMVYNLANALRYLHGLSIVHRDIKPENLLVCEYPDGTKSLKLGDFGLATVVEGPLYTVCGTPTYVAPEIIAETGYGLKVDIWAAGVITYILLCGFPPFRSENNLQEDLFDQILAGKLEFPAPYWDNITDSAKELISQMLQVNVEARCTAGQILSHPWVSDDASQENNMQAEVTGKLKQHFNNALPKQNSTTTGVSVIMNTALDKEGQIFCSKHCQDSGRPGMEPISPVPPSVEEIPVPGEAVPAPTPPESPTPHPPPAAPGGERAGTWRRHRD
UniProt Q96Q40, sequence (whole entry, looked up): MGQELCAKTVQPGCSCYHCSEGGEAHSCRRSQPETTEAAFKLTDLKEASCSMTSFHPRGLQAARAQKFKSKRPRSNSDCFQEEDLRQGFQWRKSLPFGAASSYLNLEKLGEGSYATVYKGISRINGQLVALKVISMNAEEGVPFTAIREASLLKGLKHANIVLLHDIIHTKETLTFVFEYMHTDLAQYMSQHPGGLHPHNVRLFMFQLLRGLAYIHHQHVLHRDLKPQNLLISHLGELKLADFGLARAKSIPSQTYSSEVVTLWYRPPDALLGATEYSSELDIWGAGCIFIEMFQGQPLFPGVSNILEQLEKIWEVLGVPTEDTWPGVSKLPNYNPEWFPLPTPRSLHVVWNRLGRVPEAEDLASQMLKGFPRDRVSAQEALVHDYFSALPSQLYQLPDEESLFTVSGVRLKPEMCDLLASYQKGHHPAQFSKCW
UniProt Q8WU08, sequence (whole entry, looked up): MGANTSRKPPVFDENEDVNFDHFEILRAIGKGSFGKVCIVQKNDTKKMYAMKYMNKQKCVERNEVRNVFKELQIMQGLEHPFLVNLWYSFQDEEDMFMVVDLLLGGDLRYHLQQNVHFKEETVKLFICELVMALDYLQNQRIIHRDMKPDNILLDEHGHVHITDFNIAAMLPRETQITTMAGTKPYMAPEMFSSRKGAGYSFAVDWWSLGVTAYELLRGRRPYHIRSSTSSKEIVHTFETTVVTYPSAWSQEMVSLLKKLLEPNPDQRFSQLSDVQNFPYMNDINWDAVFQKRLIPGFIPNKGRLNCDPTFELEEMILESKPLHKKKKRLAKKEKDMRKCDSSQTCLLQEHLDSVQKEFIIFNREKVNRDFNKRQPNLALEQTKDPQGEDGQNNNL

Study 1
Target: Fragile X messenger ribonucleoprotein 1, C-terminal low-complexity region (Fmr1, Mus musculus, UniProt P35922)
Technique: RNA Bind-n-Seq
Form: RNA
Medium: in vitro
Tested at: 200 nM
Notes: whole 134-nt RNA, ends assumed
Added: 150 mM KCl
Baseline: input library
Direction: higher = stronger binding
Shared flanks, not repeated: GGGAGUUCUACAGUCCGACGAUC … UGGAAUUCUCGGGUGUCAAGG
Oligonucleotide | log2 enrichment
ACCAUGCAGGUGGGCAUCUUUGGGAAGUGGGGUAAGGGGGGGAUAGGGAGGGGGGUAACACUUUGGGAACAGGUGGUCCCAGGUCGUUUC | 0.845
CAAGUCCUGUGCUACACAUCGUAUGUACCGAAUCGGGUGGGAAAAAAAGGGAGGGAAAGUAUUAUGUUACGCCGUUCGGAUCUGCACUUC | 0.8
CCUGUGCUACACAUCGUAUGUACCGAAUCGGGUUUUUUUGGGUUUUUGGGUUUUUUUGGGAAAGUAUUAUGUUACGCCGUUCGGAUCUGC | -0.318
CCUCAAGUCCUGUGCUACACAUCGUAUGUACCGAAUCGGGGAGGGAGGGAGGAAAGUAUUAUGUUACGCCGUUCGGAUCUGCACUUCCAG | 1.2
UUUCUAGCUGGACCAGUCCGGUACGCUCCGGGCCUCACCGAGGAAGUCCCACCCUGCAGGGGAACCGACUCUGGCCGGCCCUAACCCCUC | -0.48
UCAAGUCCUGUGCUACACAUCGUAUGUACCGAAUCGGAAAAAGGAGGAAAAAGGAAAGUAUUAUGUUACGCCGUUCGGAUCUGCACUUCC | -0.525
UCCUGUGCUACACAUCGUAUGUACCGAAUCGGGGAAAAAGGGAAAAAGGGAAAAAGGGGAAAGUAUUAUGUUACGCCGUUCGGAUCUGCA | 0.00284
AGAUGAACAAGAGAACUGGGCAACCCAUGAUCCACAUCUACCUGGACAAGGAAACAGGAAAGCCCAAAGGCGAUGCCACAGUGUCCUAUG | -1.22

Study 2
Target: Serine/threonine-protein kinase PAK 6 (PAK6, Homo sapiens, UniProt Q9NQU5)
UniProt Q9NQU5, sequence (whole entry, looked up): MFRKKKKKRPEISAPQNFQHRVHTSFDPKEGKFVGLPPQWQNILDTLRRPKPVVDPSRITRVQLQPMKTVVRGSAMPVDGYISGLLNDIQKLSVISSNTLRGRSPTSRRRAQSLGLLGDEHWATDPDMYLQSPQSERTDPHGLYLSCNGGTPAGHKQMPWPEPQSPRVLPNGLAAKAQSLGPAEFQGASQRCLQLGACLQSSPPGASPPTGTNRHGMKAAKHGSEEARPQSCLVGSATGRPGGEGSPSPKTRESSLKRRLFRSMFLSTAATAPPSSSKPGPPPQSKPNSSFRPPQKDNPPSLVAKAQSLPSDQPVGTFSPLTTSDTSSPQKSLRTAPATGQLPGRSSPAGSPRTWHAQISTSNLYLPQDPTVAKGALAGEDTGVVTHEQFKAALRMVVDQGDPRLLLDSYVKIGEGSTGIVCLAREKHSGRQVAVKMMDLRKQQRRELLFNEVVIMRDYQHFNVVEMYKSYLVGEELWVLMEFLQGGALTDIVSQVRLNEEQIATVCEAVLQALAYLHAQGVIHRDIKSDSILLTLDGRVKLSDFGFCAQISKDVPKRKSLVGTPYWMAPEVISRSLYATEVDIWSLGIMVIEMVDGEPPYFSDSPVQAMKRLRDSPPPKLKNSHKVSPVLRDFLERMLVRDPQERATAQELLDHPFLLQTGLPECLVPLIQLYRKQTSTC
Effect on: enzyme activity
Action: inhibitor
Tested at: 0.5 µM
Baseline: control
SMILES | remaining activity
CC(C)[C@H](CO)Nc1nc(Nc2cc(N)cc(Cl)c2)c2ncn(C(C)C)c2n1 | 57.3%
Cc1nc(-c2ccccc2)c(-c2ccncc2)o1 | 103%
O=C(Nc1cccc(Nc2cc(Nc3cccc(C(F)(F)F)c3)ncn2)c1)C1CC1 | 99.3%
Nc1[nH]nc2nc3ccccc3nc12 | 96.3%
O=C1NC(=O)C(c2cn(CCCO)c3ncccc23)=C1c1cnccn1 | 78.2%
O=C(O)c1ccc2c3c1cccc3c(=O)n1c3ccccc3nc21 | 103%
COc1cc2ncnc(Nc3ccc(Oc4ccccc4)cc3)c2cc1OC | 109%
Oc1ccc(-c2nc(-c3ccncc3)c(-c3ccc(F)cc3)[nH]2)cc1 | 104%
COc1ccc(CNC(=O)Nc2ncc([N+](=O)[O-])s2)cc1 | 106%
CCOC(=O)c1c(C)[nH]c(/C=C2\C(=O)Nc3ccccc32)c1C | 81.4%
O=C1NC(=O)C(c2cn(CCCn3ccnc3)c3ccccc23)=C1Nc1ccccc1 | 105%
CO[C@H]1C[C@@H]2CC[C@@H](C)[C@@](O)(O2)C(=O)C(=O)N2CCCC[C@H]2C(=O)O[C@H]([C@H](C)C[C@@H]2CC[C@@H](O)[C@H](OC)C2)CC(=O)[C@H](C)/C=C(\C)[C@@H](O)[C@@H](OC)C(=O)[C@H](C)C[C@H](C)/C=C/C=C/C=C/1C | 112%
O=c1c2ccccc2[nH]c(=S)n1CCN1CCC(=C(c2ccc(F)cc2)c2ccc(F)cc2)CC1 | 98.4%
N#CC(C#N)=C(N)/C(C#N)=C/c1ccc(O)cc1 | 97%

Study 3
SMILES: O=C(Nc1cnc(Oc2ccc(F)cc2)nc1)N1CCc2ncccc2[C@@H]1c1ccc(F)cc1
Effect on: cell-free assay
Technique: competition with immobilised ligand
Tested at: 1 µM
target | remaining binding
Serine/threonine-protein kinase DCLK2 (DCLK2, Homo sapiens, UniProt Q8N568) | 90%
Phosphatidylinositol 5-phosphate 4-kinase type-2 beta (PIP4K2B, Homo sapiens, UniProt P78356) | 100%
Ephrin type-B receptor 2 (EPHB2, Homo sapiens, UniProt P29323) | 87%
Serine/threonine-protein kinase 32A (STK32A, Homo sapiens, UniProt Q8WU08) | 100%
Cyclin-dependent kinase 15 (CDK15, Homo sapiens, UniProt Q96Q40) | 93%
Vascular endothelial growth factor receptor 1 (FLT1, Homo sapiens, UniProt P17948) | 88%
Epidermal growth factor receptor (EGFR, Homo sapiens, UniProt P00533, A750P/del747-749) | 86%

Single results of other studies
Molecule | target | test | test system | conditions | how to read | measurement | result
PhoQ, residues 284 288 289 292 302 303 AEGLLW | PhoP, residues 12 14 15 18 19 LQHIR (Escherichia coli, UniProt P23836) | Sort-seq, item: YFP reporter | E. coli | PhoQ-PhoP variant library, added: 10 µM Mg2+ | baseline: high Mg2+ state, higher = stronger signaling | fold induction | 2.91

Some of these lines once more (study 3):
target | remaining binding
Vascular endothelial growth factor receptor 1 (FLT1, Homo sapiens, UniProt P17948) | 88%
Epidermal growth factor receptor (EGFR, Homo sapiens, UniProt P00533, A750P/del747-749) | 86%
